Results of several laboratories.
Numbered parts are unrelated; each lists some results of a single study. Positions count from the first letter of the parent shown.

Set 1 — target: CCND1, cyclin fold, Cln2 fusion (human); method: yeast growth competition, sequencing; sample: yeast; notes: weak parent motif; baseline: not given; direction: higher = stronger binding
Parent: WEE1 docking peptide (human); HKTFRKLRLFDTP
Substitution	normalised enrichment score
AKTFRKLRLFDTP [H1A]	-0.424
HKTFRKLRLFATP [D11A]	-0.148
HKTFRKLLLFDTP [R8L]	0.0431
HKTFRKLRLTDTP [F10T]	-0.156
HKTFRKLRLFDLP [T12L]	-0.128
HKTFNKLRLFDTP [R5N]	-4.96
HKTFRKLRQFDTP [L9Q]	0.224

Set 2 — method: DHFR PCA, deep sequencing; sample: yeast; added: (+)-ABA 4.8 µM; baseline: wild-type fitted maximum; direction: higher = stronger binding
Target: ABI1, truncated, D143A, DHFR fusion (Arabidopsis thaliana)
Notes: methotrexate growth selection, single substitutions
Parent: PYL1, truncated, DHFR fusion (Arabidopsis thaliana); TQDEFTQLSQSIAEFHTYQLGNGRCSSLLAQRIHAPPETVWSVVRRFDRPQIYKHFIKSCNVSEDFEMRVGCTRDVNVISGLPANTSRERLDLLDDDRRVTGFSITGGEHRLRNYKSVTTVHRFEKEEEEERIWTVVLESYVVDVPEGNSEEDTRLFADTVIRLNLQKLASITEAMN
Substitution	relative binding score [%]
N114I	-2.66
E147S	62.1
V161R	-7.75
N61R	78.3
N149E	12.2
T120M	0.163
E67M	54.9

Set 3 — method: RNA Bind-n-Seq; molecule type: RNA; sample: in vitro; tested at: 365 nM; baseline: no-protein control; direction: higher = stronger binding
Target: RNA binding protein fox-1 homolog 2, RRM domain, GST-SBP tag (RBFOX2, Homo sapiens, UniProt O43251-10, residues 100-194)
Notes: natural RNA segment, single round, ends assumed
All sequences stand within: GGGAGUUCUACAGUCCGACGAUC … UGGAAUUCUCGGGUGCCAA
Construct (chain): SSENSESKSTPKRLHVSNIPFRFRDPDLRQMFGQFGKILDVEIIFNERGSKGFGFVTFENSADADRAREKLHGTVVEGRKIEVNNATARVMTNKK
Strand	RBNS enrichment (R)
CUGUUGCAUUUUUGCAAUCUUGUGUCCCGCUCGGUGAUGUUCUACAAACUCUGUUUUAAGGUUGAGAAAGUUUCAAGGGUGAAGAUCUCAAAACAGUGCUAAAAUCAAAG	0.498
UAUUAAACACUAACAUCUGAGUUUCACCUAAUCUGUUUCUGUGCCAUAUACUGGGUAUCCAAGCUCUGGGAAGUUAUCCUACCAGGCCCUGAUCUGUUGAUAAGGCACUA	0.338
GUAGUCCCCAGUUAUUAUGAAACCACCAAUAACCCACUGACCACAGUGAGAACCACUGAUUUUUUCCACUGACCUACUGAAUAUCUAGCAUCCUUAGAUUGGCUCAACUG	1.06
UGUCUUAAGCAACAGCCCCAAAUGCUGGCUGCCCCCAGCCAAGCAUUGGGGCCGCCAUCCUGCCUGGCACUGGCUGAUGGGCACCUCUGUUGGUUCCAUCAGCCAGAGCU	0.155
CCUUAAAAGGGUGAGAAGGGCGCGUAGAUAGUUACAGAGUCUCAGCUGCUGACGUUCUGAGCCAGGCAAGUGCACGGGGCUGUUGGAUGGCCAGUGGGGAGCUGGAAAAA	1.15
UCCUAGGGCCUGUAGUGACCGGCAGGGCUGGGGUGAGACCCCUCCCUUCCAGAAUCCAGGCCCCAUCUCCCCCAACUCCACAGCCCCUCCCGAGCCUCAAGGCAAGUCCA	0.777
UCUGCAAGAUUUUGUUCUUUGAAUUUCUUGAUAUUGUAAUUGAUUAUUGAUAACUGUCAUCAUGAAAUUAUCUCUCAAUAAUAAGAUAAAUAAACUAGCAUAUGAAUCAU	0.846
UGGAACCAACAAGUUGAGUGCAUCCCUGUUGGGUGUUUUGUGUUGAGACUGGCUGAAAUGAGGAGACUUUGACCAUGUGACGUGUCAACAGACUCAAGGAGACAACCACC	1.64
AGGCAUCAAAAUGAGUUGACAGCCAGGCCUGGUGGUACAGGCCAGUAAAGCCAGCUGCUCUGGAGGCGGAGGCAGGAGGAUCUCAAAUUCAAGCCUGCUUAAGCUACUUA	0.28

Mixed results
Molecule	target	test	test system	setting	how to read	quantity	value
PhoQ, residues 284 288 289 292 302 303 SLSVQF	PhoP, residues 12 14 15 18 19 TPWLV (Escherichia coli, UniProt P23836)	Sort-seq, refers to: YFP reporter	E. coli	PhoQ-PhoP variant library, added: 10 µM Mg2+	baseline: high Mg2+ state, higher = stronger signaling	fold induction	16.9

A few entries again (set 3):
Strand	RBNS enrichment (R)
GUAGUCCCCAGUUAUUAUGAAACCACCAAUAACCCACUGACCACAGUGAGAACCACUGAUUUUUUCCACUGACCUACUGAAUAUCUAGCAUCCUUAGAUUGGCUCAACUG	1.06
UGUCUUAAGCAACAGCCCCAAAUGCUGGCUGCCCCCAGCCAAGCAUUGGGGCCGCCAUCCUGCCUGGCACUGGCUGAUGGGCACCUCUGUUGGUUCCAUCAGCCAGAGCU	0.155
